{"data": "Results from different studies", "note": "Each numbered part is a random draw from the data of one study; scales do not carry over between parts.", "chain of UniProt Q2M2I8 (whole entry, looked up)": "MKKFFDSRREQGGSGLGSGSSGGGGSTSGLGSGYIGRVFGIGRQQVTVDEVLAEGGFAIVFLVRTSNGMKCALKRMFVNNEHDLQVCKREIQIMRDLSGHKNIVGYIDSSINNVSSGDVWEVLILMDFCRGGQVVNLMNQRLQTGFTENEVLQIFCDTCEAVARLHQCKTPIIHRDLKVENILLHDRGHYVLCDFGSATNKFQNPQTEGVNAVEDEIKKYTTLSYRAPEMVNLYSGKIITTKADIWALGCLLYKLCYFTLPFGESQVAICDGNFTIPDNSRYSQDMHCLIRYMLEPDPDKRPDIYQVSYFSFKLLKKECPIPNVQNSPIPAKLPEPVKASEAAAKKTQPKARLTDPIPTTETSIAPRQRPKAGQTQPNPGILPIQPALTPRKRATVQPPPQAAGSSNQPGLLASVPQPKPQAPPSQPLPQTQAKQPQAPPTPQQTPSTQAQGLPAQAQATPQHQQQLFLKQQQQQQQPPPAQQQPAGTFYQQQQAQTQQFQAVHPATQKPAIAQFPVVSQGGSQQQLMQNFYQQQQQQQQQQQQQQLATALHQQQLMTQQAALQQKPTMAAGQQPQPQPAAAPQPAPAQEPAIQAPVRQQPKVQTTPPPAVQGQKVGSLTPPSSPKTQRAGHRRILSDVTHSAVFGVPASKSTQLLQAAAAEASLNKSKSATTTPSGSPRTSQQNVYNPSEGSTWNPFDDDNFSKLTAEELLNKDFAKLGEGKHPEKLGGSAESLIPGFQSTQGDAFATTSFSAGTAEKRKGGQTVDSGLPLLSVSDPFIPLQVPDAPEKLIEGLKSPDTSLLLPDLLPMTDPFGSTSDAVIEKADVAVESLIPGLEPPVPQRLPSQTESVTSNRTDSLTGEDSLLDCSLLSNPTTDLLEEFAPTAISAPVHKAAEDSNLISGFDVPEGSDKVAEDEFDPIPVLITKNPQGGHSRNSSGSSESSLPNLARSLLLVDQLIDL", "chain of UniProt Q8NG66 (whole entry, looked up)": "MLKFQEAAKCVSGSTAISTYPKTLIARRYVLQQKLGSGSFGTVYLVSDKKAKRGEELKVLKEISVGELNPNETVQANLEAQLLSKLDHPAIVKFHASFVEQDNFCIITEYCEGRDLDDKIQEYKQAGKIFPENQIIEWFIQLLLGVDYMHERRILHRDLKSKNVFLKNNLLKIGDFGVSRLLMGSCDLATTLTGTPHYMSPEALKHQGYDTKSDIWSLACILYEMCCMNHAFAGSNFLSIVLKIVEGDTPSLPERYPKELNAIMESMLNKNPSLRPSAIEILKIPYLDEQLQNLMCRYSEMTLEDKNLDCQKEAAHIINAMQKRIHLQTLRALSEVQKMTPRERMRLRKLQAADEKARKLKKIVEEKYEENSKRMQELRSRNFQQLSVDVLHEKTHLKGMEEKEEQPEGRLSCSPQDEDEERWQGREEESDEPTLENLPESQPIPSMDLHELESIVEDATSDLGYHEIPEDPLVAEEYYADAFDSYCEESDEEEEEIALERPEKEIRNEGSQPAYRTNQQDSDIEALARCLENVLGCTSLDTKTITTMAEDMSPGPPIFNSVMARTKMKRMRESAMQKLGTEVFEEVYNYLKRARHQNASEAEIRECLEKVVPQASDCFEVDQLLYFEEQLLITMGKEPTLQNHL", "chain of UniProt Q9HBH9 (whole entry, looked up)": "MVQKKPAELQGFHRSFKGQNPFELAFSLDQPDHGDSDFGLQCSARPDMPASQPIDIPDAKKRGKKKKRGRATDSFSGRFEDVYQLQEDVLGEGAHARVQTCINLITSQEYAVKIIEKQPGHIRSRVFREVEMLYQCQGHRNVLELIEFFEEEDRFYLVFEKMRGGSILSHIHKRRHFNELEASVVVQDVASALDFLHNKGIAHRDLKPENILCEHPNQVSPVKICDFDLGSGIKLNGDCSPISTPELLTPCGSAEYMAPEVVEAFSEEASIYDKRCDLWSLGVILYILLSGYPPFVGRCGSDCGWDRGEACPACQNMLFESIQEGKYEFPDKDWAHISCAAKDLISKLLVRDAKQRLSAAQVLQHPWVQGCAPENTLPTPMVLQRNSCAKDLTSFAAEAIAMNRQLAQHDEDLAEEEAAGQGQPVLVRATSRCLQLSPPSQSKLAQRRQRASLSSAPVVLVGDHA", "chain of UniProt O43683 (whole entry, looked up)": "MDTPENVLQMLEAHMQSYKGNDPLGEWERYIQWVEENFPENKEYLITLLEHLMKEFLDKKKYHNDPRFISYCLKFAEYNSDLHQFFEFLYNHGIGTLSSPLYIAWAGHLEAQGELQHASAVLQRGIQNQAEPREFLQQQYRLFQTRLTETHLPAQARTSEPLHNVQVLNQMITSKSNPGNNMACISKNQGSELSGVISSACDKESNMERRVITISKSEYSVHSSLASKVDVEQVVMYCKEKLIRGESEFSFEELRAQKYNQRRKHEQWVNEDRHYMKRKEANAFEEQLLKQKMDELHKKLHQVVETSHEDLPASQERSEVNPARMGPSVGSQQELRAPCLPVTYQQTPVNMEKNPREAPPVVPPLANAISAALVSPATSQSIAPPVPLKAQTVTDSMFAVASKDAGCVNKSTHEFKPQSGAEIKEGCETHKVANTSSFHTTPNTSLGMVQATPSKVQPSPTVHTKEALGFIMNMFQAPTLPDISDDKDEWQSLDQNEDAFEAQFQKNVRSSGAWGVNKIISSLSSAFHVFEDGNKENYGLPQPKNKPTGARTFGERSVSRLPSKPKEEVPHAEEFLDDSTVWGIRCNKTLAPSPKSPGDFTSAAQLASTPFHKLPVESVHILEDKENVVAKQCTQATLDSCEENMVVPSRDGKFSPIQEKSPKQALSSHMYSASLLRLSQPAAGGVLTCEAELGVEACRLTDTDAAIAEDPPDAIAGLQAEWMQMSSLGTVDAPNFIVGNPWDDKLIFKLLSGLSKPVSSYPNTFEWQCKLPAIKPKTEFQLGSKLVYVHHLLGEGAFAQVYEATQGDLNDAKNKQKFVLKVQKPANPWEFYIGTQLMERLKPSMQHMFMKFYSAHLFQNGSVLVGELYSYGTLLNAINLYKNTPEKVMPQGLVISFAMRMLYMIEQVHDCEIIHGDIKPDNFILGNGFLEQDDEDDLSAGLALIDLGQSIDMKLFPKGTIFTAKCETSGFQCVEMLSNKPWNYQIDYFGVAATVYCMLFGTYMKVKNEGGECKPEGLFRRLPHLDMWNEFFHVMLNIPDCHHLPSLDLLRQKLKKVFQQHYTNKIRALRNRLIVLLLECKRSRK", "chain of UniProt O75676 (whole entry, looked up)": "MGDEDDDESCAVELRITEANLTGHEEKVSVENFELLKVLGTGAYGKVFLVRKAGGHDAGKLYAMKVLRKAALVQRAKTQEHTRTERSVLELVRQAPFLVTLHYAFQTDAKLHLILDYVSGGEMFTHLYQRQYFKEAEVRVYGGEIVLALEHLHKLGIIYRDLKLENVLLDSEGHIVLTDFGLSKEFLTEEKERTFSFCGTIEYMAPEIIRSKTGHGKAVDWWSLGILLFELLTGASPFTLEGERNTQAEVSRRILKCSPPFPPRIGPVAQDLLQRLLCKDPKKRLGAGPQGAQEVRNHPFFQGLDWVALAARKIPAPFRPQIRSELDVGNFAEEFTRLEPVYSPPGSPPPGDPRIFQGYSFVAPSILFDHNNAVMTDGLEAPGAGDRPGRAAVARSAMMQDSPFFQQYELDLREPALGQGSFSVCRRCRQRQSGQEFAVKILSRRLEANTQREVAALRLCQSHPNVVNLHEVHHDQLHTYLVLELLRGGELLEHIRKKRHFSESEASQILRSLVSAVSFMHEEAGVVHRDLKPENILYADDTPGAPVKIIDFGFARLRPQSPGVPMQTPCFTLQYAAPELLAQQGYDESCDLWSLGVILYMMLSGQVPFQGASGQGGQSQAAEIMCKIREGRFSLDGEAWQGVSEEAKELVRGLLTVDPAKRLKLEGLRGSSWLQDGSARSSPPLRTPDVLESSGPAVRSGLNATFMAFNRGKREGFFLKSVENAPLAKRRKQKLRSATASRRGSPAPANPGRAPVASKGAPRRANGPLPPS"}
{"data": "Study 1", "target": "Calcium/calmodulin-dependent protein kinase type II subunit alpha (CAMK2A, Homo sapiens, UniProt Q9UQM7)", "read-out": "enzyme activity", "mode": "inhibitor", "concentration": "10 µM", "chain of UniProt Q9UQM7 (whole entry, looked up)": "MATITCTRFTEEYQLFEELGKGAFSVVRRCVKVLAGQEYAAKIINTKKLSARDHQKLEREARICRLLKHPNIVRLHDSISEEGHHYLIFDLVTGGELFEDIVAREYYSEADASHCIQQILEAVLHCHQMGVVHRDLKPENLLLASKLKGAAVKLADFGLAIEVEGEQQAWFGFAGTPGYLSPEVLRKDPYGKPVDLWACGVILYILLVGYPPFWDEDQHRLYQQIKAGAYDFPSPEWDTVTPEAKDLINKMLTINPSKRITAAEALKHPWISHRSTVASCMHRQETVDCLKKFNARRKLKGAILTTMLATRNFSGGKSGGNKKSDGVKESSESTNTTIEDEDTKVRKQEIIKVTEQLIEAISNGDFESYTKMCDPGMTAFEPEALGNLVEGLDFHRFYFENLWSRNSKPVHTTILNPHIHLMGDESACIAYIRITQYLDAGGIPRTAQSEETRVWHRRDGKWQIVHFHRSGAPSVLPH"}
{"SMILES": "CC[C@H](Nc1ncnc2nc[nH]c12)c1nc2cccc(F)c2c(=O)n1-c1ccccc1", "inhibition [%]": -9}
{"SMILES": "O=C(NC[C@H]1CN(c2ccc(N3CCOCC3=O)cc2)C(=O)O1)c1ccc(Cl)s1", "inhibition [%]": -2}
{"SMILES": "CC(C)CCC[C@](C)(O)[C@H]1CC[C@H]2[C@@H]3CC=C4C[C@@H](O)CC[C@]4(C)[C@H]3CC[C@@]21C", "inhibition [%]": 59}
{"SMILES": "Cc1ncc(C[n+]2csc(CCOP(=O)(O)OP(=O)(O)O)c2C)c(N)n1", "inhibition [%]": 27}
{"SMILES": "O=c1c(O[C@@H]2O[C@H](CO[C@@H]3O[C@H](CO)[C@@H](O)[C@H](O)[C@H]3O)[C@@H](O)[C@H](O)[C@H]2O)c(-c2ccc(O)c(O)c2)oc2cc(O)cc(O)c12", "inhibition [%]": 40}
{"SMILES": "O=c1[nH]c(=O)n([C@H]2C[C@H](O)[C@@H](CO)O2)cc1/C=C/Br", "inhibition [%]": -5}
{"SMILES": "C/C=C(/C)C(=O)O[C@@H]1c2c(ccc3ccc(=O)oc23)OC(C)(C)[C@@H]1OC(C)=O", "inhibition [%]": 11}
{"SMILES": "O=C(O)CCC(=O)OC[C@@H](NC(=O)C(Cl)Cl)[C@H](O)c1ccc([N+](=O)[O-])cc1", "inhibition [%]": 16}
{"SMILES": "O=C1O[C@H]([C@@H](O)CO)C(O)=C1O[C@@H]1O[C@H](CO)[C@@H](O)[C@H](O)[C@H]1O", "inhibition [%]": -5}
{"SMILES": "COC(=O)c1cc(OC)c2c(c1-c1c(C(=O)OC)cc(OC)c3c1OCO3)OCO2", "inhibition [%]": -5}
{"SMILES": "C/C(=C(\\CCO)SS/C(CCO)=C(/C)N(C=O)Cc1cnc(C)nc1N)N(C=O)Cc1cnc(C)nc1N", "inhibition [%]": -12}
{"SMILES": "CCCCCCCC/C=C\\CCCCCCCC(=O)O[C@H]1CC[C@@]2(C)C(=CC[C@H]3[C@@H]4CC[C@H]([C@H](C)CCCC(C)C)[C@@]4(C)CC[C@@H]32)C1", "inhibition [%]": -8}
{"SMILES": "O=c1oc2c(O)c(O)cc3c(=O)oc4c(O)c(O)cc1c4c23", "inhibition [%]": -4}
{"SMILES": "COc1ccc(O)cc1OC", "inhibition [%]": -14}
{"SMILES": "CC1(C)O[C@H]2[C@H](O)CC(C(=O)O)=C[C@H]2O1", "inhibition [%]": -9}
{"SMILES": "CC(=O)O[C@H]1CC[C@@]2(C)C(=CC[C@@H]3[C@@H]2CC[C@]2(C)C(c4cccnc4)=CC[C@@H]32)C1", "inhibition [%]": -11}
{"data": "Study 2", "target": "Beta-1 adrenergic receptor (ADRB1, Homo sapiens, UniProt P08588)", "mode": "agonist", "chain of UniProt P08588 (whole entry, looked up)": "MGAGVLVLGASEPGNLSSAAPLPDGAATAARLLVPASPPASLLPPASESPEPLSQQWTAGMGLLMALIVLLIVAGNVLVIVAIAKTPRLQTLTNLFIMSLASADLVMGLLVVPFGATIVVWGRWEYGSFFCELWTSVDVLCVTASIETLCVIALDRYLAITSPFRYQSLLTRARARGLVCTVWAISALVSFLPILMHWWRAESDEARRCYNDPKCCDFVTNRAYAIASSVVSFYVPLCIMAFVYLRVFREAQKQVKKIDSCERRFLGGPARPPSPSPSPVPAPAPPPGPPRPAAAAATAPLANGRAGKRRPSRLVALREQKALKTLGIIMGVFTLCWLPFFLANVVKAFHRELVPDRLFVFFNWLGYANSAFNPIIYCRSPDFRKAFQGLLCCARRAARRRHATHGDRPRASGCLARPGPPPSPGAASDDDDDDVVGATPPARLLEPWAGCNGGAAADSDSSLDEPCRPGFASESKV"}
{"Structure (SMILES)": "CC(C)(Cc1ccc2ccccc2c1)NCC(O)COc1cccc(Cl)c1C#N (stereo not shown)", "Emax": "113%"}
{"Structure (SMILES)": "CC(CCc1ccccc1)NCC(O)c1ccc(O)c(C(N)=O)c1 (stereo not shown)", "Emax": "96.5%"}
{"Structure (SMILES)": "COc1ccc(C(O)Cn2ccn3nc(-c4ccc(C(C)C)cc4)cc3c2=O)cc1 (stereo not shown)", "Emax": "64.3%"}
{"Structure (SMILES)": "COc1ccccc1N1CCN(C(=O)C[C@@H]2O[C@H](CNC(=O)NC(C)C)[C@@H](O)[C@H]2O)CC1", "Emax": "43.4%"}
{"Structure (SMILES)": "COc1ccccc1N1CCN(CCCCNC(=O)c2ccc(-c3cscn3)cc2)CC1", "Emax": "75.6%"}
{"Structure (SMILES)": "Cc1cccc(OCC(O)CNC(C)C)c1 (stereo not shown)", "Emax": "62.7%"}
{"Structure (SMILES)": "CC(C(O)c1ccccc1)N(C)CCOC(c1ccccc1)c1ccccc1 (stereo not shown)", "Emax": "44.4%"}
{"Structure (SMILES)": "O=C1CCN(Cc2ccccc2OCC(O)CN2CCCCC2)CCN1 (stereo not shown)", "Emax": "95.8%"}
{"data": "Study 3", "SMILES": "CCOC(=O)c1cc2cc(-c3cc(C(=O)NCc4ccc(C(=O)O)cc4)nn3C)ccc2[nH]1", "concentration": "0.1 µM"}
{"target": "Cyclin-dependent kinase 4, with cyclin D1 (CDK4, Homo sapiens, UniProt P11802)", "test": "cell-free assay, competition with immobilised ligand", "remaining binding": "82%"}
{"target": "Ribosomal protein S6 kinase alpha-6, N-terminal kinase domain (RPS6KA6, Homo sapiens, UniProt Q9UK32)", "test": "cell-free assay, competition with immobilised ligand", "remaining binding": "95%"}
{"target": "CDK11A (Homo sapiens, UniProt Q9UQ88)", "test": "binding, competition with immobilised ligand", "remaining binding": "100%"}
{"target": "EGFR (Homo sapiens, UniProt P00533, del747-750/T751S)", "test": "cell-free assay, competition with immobilised ligand", "remaining binding": "100%"}
{"target": "MINK1 (Homo sapiens, UniProt Q8N4C8)", "test": "cell-free assay, competition with immobilised ligand", "remaining binding": "94%"}
{"target": "NEK11 (Homo sapiens, UniProt Q8NG66)", "test": "cell-free assay, competition with immobilised ligand", "remaining binding": "77%"}
{"target": "AAK1 (Homo sapiens, UniProt Q2M2I8)", "test": "binding", "remaining binding": "100%"}
{"target": "RIPK4 (Homo sapiens, UniProt P57078)", "test": "cell-free assay, competition with immobilised ligand", "remaining binding": "82%"}
{"target": "Ribosomal protein S6 kinase alpha-4, N-terminal kinase domain (RPS6KA4, Homo sapiens, UniProt O75676)", "test": "cell-free assay, competition with immobilised ligand", "remaining binding": "88%"}
{"target": "TLK1 (Homo sapiens, UniProt Q9UKI8)", "test": "cell-free assay, competition with immobilised ligand", "remaining binding": "83%"}
{"target": "BUB1 (Homo sapiens, UniProt O43683)", "test": "cell-free assay, competition with immobilised ligand", "remaining binding": "100%"}
{"target": "PAK2 (Homo sapiens, UniProt Q13177)", "test": "cell-free assay, competition with immobilised ligand", "remaining binding": "100%"}
{"target": "MKNK2 (Homo sapiens, UniProt Q9HBH9)", "test": "cell-free assay, competition with immobilised ligand", "remaining binding": "92%"}
{"target": "Tyrosine-protein kinase ABL1, non-phosphorylated (ABL1, Homo sapiens, UniProt P00519, H396P)", "test": "cell-free assay, competition with immobilised ligand", "remaining binding": "88%"}
{"target": "STK33 (Homo sapiens, UniProt Q9BYT3)", "test": "cell-free assay, competition with immobilised ligand", "remaining binding": "100%"}
{"target": "KDR (Homo sapiens, UniProt P35968)", "test": "cell-free assay, competition with immobilised ligand", "remaining binding": "81%"}
{"target": "HIPK4 (Homo sapiens, UniProt Q8NE63)", "test": "cell-free assay, competition with immobilised ligand", "remaining binding": "87%"}
{"target": "CDC42BPA (Homo sapiens, UniProt Q5VT25)", "test": "cell-free assay, competition with immobilised ligand", "remaining binding": "100%"}
{"target": "CLK4 (Homo sapiens, UniProt Q9HAZ1)", "test": "cell-free assay, competition with immobilised ligand", "remaining binding": "89%"}
{"target": "CAMK1D (Homo sapiens, UniProt Q8IU85)", "test": "cell-free assay, competition with immobilised ligand", "remaining binding": "100%"}
{"target": "RIPK2 (Homo sapiens, UniProt O43353)", "test": "cell-free assay, competition with immobilised ligand", "remaining binding": "100%"}
{"target": "PRKG2 (Homo sapiens, UniProt Q13237)", "test": "cell-free assay, competition with immobilised ligand", "remaining binding": "93%"}
{"target": "LATS1 (Homo sapiens, UniProt O95835)", "test": "cell-free assay, competition with immobilised ligand", "remaining binding": "97%"}
{"target": "PIK3CA (Homo sapiens, UniProt P42336, H1047Y)", "test": "cell-free assay, competition with immobilised ligand", "remaining binding": "77%"}
{"target": "WEE2 (Homo sapiens, UniProt P0C1S8)", "test": "cell-free assay, competition with immobilised ligand", "remaining binding": "100%"}
{"data": "Study 4", "target": "Inhibitor of nuclear factor kappa-B kinase subunit alpha (CHUK, Homo sapiens, UniProt O15111)", "read-out": "enzyme activity", "mode": "inhibitor", "concentration": "0.5 µM", "relative to": "control", "Target sequence (O15111 1-745)": "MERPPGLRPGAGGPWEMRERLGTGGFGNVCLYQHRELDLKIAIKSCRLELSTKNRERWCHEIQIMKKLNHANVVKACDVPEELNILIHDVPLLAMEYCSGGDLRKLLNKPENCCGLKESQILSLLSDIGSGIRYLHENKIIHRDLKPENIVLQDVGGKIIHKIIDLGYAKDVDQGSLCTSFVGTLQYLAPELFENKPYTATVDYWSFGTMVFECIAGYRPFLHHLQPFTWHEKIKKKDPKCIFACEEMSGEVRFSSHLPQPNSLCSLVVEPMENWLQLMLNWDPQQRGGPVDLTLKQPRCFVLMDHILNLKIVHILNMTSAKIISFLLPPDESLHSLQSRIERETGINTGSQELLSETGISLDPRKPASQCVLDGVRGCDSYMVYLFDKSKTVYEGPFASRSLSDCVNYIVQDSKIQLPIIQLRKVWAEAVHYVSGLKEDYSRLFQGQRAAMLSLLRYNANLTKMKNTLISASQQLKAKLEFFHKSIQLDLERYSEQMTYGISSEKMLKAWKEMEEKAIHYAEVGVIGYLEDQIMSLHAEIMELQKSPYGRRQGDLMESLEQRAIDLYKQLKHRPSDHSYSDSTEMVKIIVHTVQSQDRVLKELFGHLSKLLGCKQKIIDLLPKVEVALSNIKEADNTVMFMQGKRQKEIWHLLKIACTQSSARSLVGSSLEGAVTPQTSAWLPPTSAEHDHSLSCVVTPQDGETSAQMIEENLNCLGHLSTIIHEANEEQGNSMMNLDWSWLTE"}
{"SMILES": "CCCCc1c(-c2ccc(OC)cc2)[nH]c2nccnc12", "remaining activity": "97.3%"}
{"SMILES": "COc1ccc2c(c1)c(C1=C(c3c[nH]c4ccccc34)C(=O)NC1=O)cn2CCCN(C)C", "remaining activity": "96.5%"}
{"SMILES": "O=C1NC(=O)c2c1c1c3ccccc3[nH]c1n1cncc21", "remaining activity": "100%"}
{"SMILES": "O=C1NC(=O)c2c1c1c3ccccc3[nH]c1c1[nH]c3cc(Br)ccc3c21", "remaining activity": "81.5%"}
{"SMILES": "c1ccc(-c2n[nH]c3c2oc2ccccc23)cc1", "remaining activity": "92.3%"}
{"SMILES": "Oc1cccc(-c2nc(N3CCOCC3)c3oc4ncccc4c3n2)c1", "remaining activity": "94.8%"}
{"SMILES": "O=C1Nc2ccc(Br)cc2/C1=C/c1cc2c([nH]1)CCCC2", "remaining activity": "99.1%"}
{"SMILES": "O=C(c1cc2cc(O)ccc2[nH]1)c1cc2cc(O)ccc2[nH]1", "remaining activity": "103%"}
{"SMILES": "O=C1Cc2c([nH]c3ccc(Br)cc23)-c2ccccc2N1", "remaining activity": "98.6%"}
{"SMILES": "N#Cc1cnc2cnc(NCc3cccnc3)cc2c1Nc1ccc(F)c(Cl)c1", "remaining activity": "96.3%"}
{"SMILES": "CN(C)S(=O)(=O)c1ccc2c(c1)/C(=C/c1cc3c([nH]1)CCCC3)C(=O)N2", "remaining activity": "115%"}
{"SMILES": "O=Nc1c(-c2c(O)[nH]c3cc(Br)ccc23)[nH]c2ccccc12", "remaining activity": "104%"}
